Published values from different studies.
Protocols differ between the studies behind these lines. Values joined by “and” are separate records of one study, mostly repeats; a detail may differ. ± marks the error that the study gave.
SLC22A1: Solute carrier family 22 member 1 (SLC22A1, Homo sapiens, UniProt O15245)
UniProt O15245, sequence (whole entry, looked up): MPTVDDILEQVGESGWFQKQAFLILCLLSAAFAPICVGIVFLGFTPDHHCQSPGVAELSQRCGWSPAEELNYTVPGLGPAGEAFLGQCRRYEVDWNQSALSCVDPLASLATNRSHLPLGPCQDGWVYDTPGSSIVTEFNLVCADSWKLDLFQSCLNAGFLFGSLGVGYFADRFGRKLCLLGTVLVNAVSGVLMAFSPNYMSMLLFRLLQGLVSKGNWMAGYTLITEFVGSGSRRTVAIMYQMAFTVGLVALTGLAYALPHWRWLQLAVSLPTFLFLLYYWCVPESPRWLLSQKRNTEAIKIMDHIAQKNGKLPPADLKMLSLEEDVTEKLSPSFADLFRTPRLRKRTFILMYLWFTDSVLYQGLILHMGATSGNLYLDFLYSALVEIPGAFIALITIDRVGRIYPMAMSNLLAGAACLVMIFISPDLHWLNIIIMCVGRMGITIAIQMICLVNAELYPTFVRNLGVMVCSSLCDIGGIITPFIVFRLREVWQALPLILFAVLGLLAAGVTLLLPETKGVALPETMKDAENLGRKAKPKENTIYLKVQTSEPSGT
SCN5A: Sodium channel protein type 5 subunit alpha (SCN5A, Homo sapiens, UniProt Q14524)
UniProt Q14524, sequence (whole entry, looked up): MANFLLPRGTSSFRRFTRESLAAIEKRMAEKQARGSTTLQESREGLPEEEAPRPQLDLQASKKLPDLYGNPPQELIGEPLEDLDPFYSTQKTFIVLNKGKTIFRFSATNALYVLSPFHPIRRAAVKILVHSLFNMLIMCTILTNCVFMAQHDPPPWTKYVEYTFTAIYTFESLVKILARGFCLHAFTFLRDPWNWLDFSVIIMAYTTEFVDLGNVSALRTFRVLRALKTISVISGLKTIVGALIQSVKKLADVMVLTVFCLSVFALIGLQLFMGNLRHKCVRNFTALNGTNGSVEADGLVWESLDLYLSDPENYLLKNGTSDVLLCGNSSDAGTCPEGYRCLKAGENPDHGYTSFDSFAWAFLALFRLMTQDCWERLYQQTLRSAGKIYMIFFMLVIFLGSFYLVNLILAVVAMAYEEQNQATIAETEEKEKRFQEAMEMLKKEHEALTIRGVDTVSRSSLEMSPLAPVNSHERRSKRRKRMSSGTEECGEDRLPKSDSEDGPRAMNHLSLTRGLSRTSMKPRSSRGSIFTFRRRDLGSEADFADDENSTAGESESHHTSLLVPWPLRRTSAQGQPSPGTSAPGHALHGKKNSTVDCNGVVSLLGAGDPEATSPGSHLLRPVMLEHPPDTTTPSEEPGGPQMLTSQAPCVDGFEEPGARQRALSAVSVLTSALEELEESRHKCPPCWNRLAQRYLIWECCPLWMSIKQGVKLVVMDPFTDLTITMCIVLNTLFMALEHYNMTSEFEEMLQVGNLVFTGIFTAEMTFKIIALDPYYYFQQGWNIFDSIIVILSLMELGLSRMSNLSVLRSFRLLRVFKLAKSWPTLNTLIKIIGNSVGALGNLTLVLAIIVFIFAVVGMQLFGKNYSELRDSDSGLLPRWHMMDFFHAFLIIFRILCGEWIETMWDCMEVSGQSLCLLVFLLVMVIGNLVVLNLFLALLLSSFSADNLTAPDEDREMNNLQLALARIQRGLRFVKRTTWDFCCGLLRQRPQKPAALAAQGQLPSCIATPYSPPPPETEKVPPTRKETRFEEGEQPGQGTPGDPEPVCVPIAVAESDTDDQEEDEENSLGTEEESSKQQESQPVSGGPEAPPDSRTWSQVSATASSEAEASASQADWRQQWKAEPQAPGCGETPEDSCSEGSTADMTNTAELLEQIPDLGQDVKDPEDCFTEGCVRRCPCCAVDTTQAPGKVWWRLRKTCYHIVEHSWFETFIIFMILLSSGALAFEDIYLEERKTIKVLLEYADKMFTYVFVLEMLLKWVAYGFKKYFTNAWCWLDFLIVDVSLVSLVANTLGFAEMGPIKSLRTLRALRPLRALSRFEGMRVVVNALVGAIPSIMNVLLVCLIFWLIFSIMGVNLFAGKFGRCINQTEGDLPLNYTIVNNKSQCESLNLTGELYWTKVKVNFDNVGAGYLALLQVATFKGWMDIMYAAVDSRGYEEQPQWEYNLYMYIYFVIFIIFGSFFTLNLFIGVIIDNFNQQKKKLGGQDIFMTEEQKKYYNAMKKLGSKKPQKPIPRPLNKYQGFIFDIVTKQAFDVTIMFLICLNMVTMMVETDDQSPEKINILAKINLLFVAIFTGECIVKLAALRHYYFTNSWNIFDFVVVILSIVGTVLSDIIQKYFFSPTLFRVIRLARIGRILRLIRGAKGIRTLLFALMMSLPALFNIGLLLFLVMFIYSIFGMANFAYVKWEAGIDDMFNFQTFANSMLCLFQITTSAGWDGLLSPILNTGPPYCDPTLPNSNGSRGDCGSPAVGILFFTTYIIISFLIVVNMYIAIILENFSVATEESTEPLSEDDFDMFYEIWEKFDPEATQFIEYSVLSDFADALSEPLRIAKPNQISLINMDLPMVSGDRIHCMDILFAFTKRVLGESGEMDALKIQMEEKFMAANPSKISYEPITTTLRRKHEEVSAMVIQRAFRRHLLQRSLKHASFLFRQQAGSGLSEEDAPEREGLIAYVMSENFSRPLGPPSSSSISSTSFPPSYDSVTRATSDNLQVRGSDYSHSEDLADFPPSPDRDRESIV
CYP2E1: Cytochrome P450 2E1 (CYP2E1, Homo sapiens, UniProt P05181)
UniProt P05181, sequence (whole entry, looked up): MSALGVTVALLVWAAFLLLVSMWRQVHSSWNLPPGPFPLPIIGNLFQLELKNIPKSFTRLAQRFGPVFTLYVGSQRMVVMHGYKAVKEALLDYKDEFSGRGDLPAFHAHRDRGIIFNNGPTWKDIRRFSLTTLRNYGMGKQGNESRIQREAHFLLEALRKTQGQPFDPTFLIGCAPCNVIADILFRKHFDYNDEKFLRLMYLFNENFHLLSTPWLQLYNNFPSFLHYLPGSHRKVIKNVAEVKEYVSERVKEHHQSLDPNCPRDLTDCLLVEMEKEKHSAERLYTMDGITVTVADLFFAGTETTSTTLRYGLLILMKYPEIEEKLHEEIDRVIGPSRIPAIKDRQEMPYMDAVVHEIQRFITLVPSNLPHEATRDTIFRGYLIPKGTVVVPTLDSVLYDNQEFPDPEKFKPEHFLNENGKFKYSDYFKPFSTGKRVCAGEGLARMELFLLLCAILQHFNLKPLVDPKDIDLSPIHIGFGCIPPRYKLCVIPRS
CYP1A2: Cytochrome P450 1A2 (CYP1A2, Homo sapiens, UniProt P05177)
7-alpha-hydroxycholest-4-en-3-one 12-alpha-hydroxylase: 7-alpha-hydroxycholest-4-en-3-one 12-alpha-hydroxylase (Homo sapiens, UniProt Q9UNU6)
UniProt Q9UNU6, sequence (whole entry, looked up): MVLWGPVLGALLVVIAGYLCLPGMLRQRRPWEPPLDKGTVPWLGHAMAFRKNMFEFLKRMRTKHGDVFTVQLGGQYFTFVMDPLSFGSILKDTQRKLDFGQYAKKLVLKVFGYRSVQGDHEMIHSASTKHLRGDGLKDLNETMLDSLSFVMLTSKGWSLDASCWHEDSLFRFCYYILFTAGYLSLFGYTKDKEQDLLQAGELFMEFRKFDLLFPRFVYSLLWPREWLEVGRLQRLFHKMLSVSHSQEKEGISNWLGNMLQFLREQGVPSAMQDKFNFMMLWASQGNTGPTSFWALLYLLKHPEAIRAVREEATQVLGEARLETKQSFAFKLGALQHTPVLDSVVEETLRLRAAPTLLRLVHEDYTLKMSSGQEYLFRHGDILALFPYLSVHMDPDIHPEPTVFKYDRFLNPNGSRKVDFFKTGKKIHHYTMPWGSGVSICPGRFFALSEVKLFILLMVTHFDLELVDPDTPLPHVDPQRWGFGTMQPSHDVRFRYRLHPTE
UniProt P25043, sequence (whole entry, looked up): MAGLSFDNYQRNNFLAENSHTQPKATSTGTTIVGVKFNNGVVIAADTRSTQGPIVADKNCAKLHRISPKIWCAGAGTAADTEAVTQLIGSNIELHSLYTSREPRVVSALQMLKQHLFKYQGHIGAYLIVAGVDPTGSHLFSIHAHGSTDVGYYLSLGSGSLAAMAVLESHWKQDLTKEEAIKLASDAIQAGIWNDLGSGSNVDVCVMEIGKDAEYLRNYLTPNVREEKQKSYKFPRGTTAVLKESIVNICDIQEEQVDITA
UniProt P30656, sequence (whole entry, looked up): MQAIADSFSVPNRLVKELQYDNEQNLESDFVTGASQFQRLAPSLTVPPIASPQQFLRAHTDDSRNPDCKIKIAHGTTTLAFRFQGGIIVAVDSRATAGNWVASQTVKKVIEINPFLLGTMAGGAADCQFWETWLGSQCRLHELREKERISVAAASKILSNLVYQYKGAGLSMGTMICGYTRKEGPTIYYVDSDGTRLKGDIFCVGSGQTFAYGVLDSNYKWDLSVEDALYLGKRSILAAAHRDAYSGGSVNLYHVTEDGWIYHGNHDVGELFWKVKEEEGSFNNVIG
UniProt P38624, sequence (whole entry, looked up): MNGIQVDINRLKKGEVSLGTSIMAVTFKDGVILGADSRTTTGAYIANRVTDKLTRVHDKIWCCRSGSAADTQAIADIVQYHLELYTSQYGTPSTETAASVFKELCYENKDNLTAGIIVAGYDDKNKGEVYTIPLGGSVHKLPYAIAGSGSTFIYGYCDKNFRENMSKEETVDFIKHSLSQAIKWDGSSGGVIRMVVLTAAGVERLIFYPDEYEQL

Structure (SMILES) = CSc1nc2[nH]nc([N+](=O)[O-])c(=O)n2n1; target or system = SLC22A1; assay = transport, inhibitor; system = transiently transfected cells; setting = 100 µM, 10 (unit not given), together with: metformin; quantity = inhibition; result = -3.1%
Structure (SMILES) = Cc1cc(Nc2nc(C[C@@]3(C(=O)O)CCN(Cc4cccc(Cl)c4F)[C@H](C)C3)cc(C)c2F)n[nH]1; target or system = SCN5A; setting = 10 µM, safety pharmacology panel; quantity = inhibition; result = -2.15%
Structure (SMILES) = C[C@@H](c1ccc2nccn2c1)n1nnc2nc(O)c(-c3cnn(C)c3)nc21; target or system = CYP2E1; assay = enzyme activity, inhibitor; system = human, liver microsomes; quantity = IC50; result = > 50 µM
Structure (SMILES) = CCN(CC)CCOc1ccc(-c2nnn(Cc3ccc(OC)cc3)c2N)cc1; target or system = CYP1A2; assay = CYP phenotyping; setting = concentration not given; quantity = inhibition; result = 10.4%
Structure (SMILES) = CNC(=O)C1CCCN(C(=O)C2CC3CCC2N3C(=O)[C@@H]2C[C@@H](O)CN2C(=O)NCc2cccc(Cl)c2F)C1 (mixture of isomers); target or system = CYP3A4 (human); assay = inhibitor, time-dependent inhibition; setting = 5.56 µM, preincubated without NADPH, together with: midazolam substrate; how to read = relative to: negative control; quantity = remaining activity; result = 101%
Structure (SMILES) = Cc1cc(-c2ccc3ccccc3c2)nnc1NCCN1CCN(C)CC1; target or system = CYP1A2; assay = substrate; system = recombinant enzyme; setting = 100 nM, 0.5 h; quantity = remaining compound; result = 88%
Structure (SMILES) = Cc1cc(Br)c(O)c(Br)c1; target or system = CYP2E1; assay = p-nitrophenol hydroxylation, inhibitor; setting = with additive 100 µM; quantity = IC50; result = 17 µM
Structure (SMILES) = C[C@@]12C(=O)CC[C@H]1[C@@H]1CC=C3C[C@@H](O)CC[C@]3(C)[C@H]1C=C2c1cccnc1; target or system = 7-alpha-hydroxycholest-4-en-3-one 12-alpha-hydroxylase; assay = inhibitor; setting = 80 µM, together with: 7α-hydroxycholest-4-en-3-one; quantity = inhibition; result = no effect
Structure (SMILES) = Oc1c(Br)cccc1Br; target or system = CYP2E1; assay = p-nitrophenol hydroxylation, inhibitor; setting = with additive 100 µM; quantity = Ki; result = 4.3 µM
Structure (SMILES) = O=C1NC2(CC2)COc2ncc(F)cc2[C@H]2COCCN2c2ccn3ncc1c3n2; system = Sprague-Dawley rat, male; setting = oral, 2.5 mg/kg/day, end of recovery, 4-week repeated-dose toxicity; quantity = body weight; result = 523 ± 41.7 g
Structure (SMILES) = CC(=O)NCCCC[C@@H]1NC(=O)[C@H](Cc2c[nH]c3c(C)cccc23)NC(=O)[C@H]([C@@H](C)O)NC(=O)[C@H](CC(N)=O)NC(=O)[C@@H](NC(C)=O)C(C)(C)SSC(C)(C)[C@@H](C(=O)N[C@@H](Cc2ccc(OCCN)cc2)C(=O)N[C@@H](Cc2ccc3ccccc3c2)C(=O)NC2(C(=O)N[C@@H](CCC(=O)O)C(=O)N[C@@H](CC(N)=O)C(=O)N[C@@H](Cc3cccnc3)C(=O)N(C)CC(N)=O)CCOCC2)NC1=O; target or system = human alpha-1-acid glycoprotein 0.07%; assay = equilibrium dialysis; setting = 1 µM; quantity = protein binding; result = 1.07 ± 0.54%
Structure (SMILES) = CNC(=O)C1OC(n2cnc3c(NCc4cccc(I)c4)ncnc32)C(O)C1O (stereo not shown); target or system = SLC22A1; assay = transport, inhibitor; system = transiently transfected cells; setting = 100 µM, 10 (unit not given), together with: metformin; quantity = inhibition; result = 81.3%
Structure (SMILES) = O=C(O)c1ccc(-c2nc(-c3ccccc3Cl)c3sccn23)cc1; target or system = KCNQ1 potassium channel; assay = radioligand binding; setting = 10 µM; how to read = relative to: control; quantity = specific binding; result = 95.6% and 100%
Structure (SMILES) = CC(C)C[C@H](NC(=O)[C@@H](N)CCCCN)C(=O)N[C@H](C(=O)N[C@@H](Cc1ccccc1)C(=O)N[C@@H](Cc1ccccc1)C(=O)N[C@@H](C)C(=O)N[C@@H](CCC(=O)O)C(=O)N[C@@H](CC(=O)O)C(=O)N[C@H](C(=O)NCC(=O)N[C@@H](CO)C(=O)N[C@@H](CC(N)=O)C(=O)N[C@@H](CCCCN)C(=O)O)C(C)C)C(C)C; target or system = PUP1/PRE2/PRE3 (Saccharomyces cerevisiae, UniProt P25043+P30656+P38624); assay = nanoLC-HRMS; setting = 2 µM, 30 min, pH 8, 37 °C, proteasome 2 nM, together with: amyloid-β 1-40 peptide; how to read = relative to: initial; quantity = remaining substrate; result = 33%
Structure (SMILES) = C[C@@H](c1ccc2nccn2c1)n1nnc2ncc(-c3cn[nH]c3)nc21; target or system = CYP1A2; assay = enzyme activity, inhibitor; system = human, liver microsomes; quantity = IC50; result = 22 µM
Structure (SMILES) = COC(=O)[C@@H](NC(=O)c1nn(Cc2ccc(F)cc2)c2cc(OCCCCNC(=N)N)ccc12)C(C)(C)C; target or system = central CB1 receptor; system = mouse; setting = intraperitoneal; quantity = dose producing catalepsy; result = 30 mg/kg
Structure (SMILES) = C[C@]12CC[C@H]3[C@@H](CC[C@H]4C[C@H](O)CC[C@@]43C)[C@@H]1CC(=O)C2; target or system = SCN5A; assay = ion current, blocker; quantity = IC50; result = 19.4 µM
Structure (SMILES) = CC12CCC(=O)C=C1CCC1C2C=C(c2cccnc2)C2(C)C(=O)CCC12 (stereo not shown); target or system = 7-alpha-hydroxycholest-4-en-3-one 12-alpha-hydroxylase; assay = 12α-hydroxylation of 7α-hydroxycholest-4-en-3-one, inhibitor; setting = 80 µM, wild type; quantity = inhibition; result = no inhibition
Structure (SMILES) = C/C(=N\OCCCN1CCCCC1)c1ccc(C(F)(F)F)cc1; target or system = SCN5A; assay = ion current, antagonist, automated patch clamp; setting = 10 µM; quantity = inhibition; result = 5.65%
